Assay results from different studies.
Protocols differ between the studies behind these lines. Numbers after ± are the reported error.

SMILES | test system | setting | tissue uptake [%ID/g]
CCCC[C@H](NC(=O)CCCCCCCNC(=O)c1ccc(NN)nc1)C(=O)N[C@H]1CC(=O)NCCCC[C@@H](C(N)=O)NC(=O)[C@H](Cc2c[nH]c3ccccc23)NC(=O)[C@H](CCCNC(=N)N)NC(=O)[C@@H](Cc2ccccc2)NC(=O)[C@H](Cc2c[nH]cn2)NC1=O [technetium-99m labelled] | C57 mouse, B16/F1 melanoma, bone | 2 h, added: NDP-MSH 10 µg (6.07 nmol) co-injected | 0.3 ± 0.08
CC(C)C[C@H](NC(=O)[C@H](Cc1ccc(O)cc1)NC(=O)[C@@H](CCCNC(=N)N)NC(=O)[C@@H](CO)NC(=O)[C@H](Cc1ccccc1)NC(=O)[C@H](CC1CCCCC1)NC(=O)[C@H](CC(=O)O)NC(=O)CCC(C(=O)O)N1CCCN2CCN(CCCN(CC(=O)O)CC2)CC1)C(=O)N[C@@H](Cc1c[nH]c2ccccc12)C(=O)N[C@@H](CO)C(=O)O (stereo partly shown) [copper-64 labelled] | female NMRI nude mice, bone | 1 h p.i. | 0.9 ± 0.1
CCCC[C@H](NC(=O)COCCOCCNC(=O)c1ccc(NN)nc1)C(=O)N[C@H]1CC(=O)NCCCC[C@@H](C(N)=O)NC(=O)[C@H](Cc2c[nH]c3ccccc23)NC(=O)[C@H](CCCNC(=N)N)NC(=O)[C@@H](Cc2ccccc2)NC(=O)[C@H](Cc2c[nH]cn2)NC1=O [technetium-99m labelled] | C57 mouse, female, B16/F1 melanoma, blood | intravenous, 0.037 MBq, 2 h | 0.39 ± 0.07
N=C(N)NCCC[C@@H]1NC(=O)[C@H](CCCCNC(=O)CNC(=O)CNC(=O)CNC(=O)CC[C@H](NC(=O)c2ccc(NN=Cc3ccccc3S(=O)(=O)O)nc2)C(=O)NCC(=O)NCC(=O)NCC(=O)NCCCC[C@@H]2NC(=O)[C@@H](Cc3ccccc3)NC(=O)[C@H](CC(=O)O)NC(=O)CNC(=O)[C@H](CCCNC(=N)N)NC2=O)NC(=O)[C@@H](Cc2ccccc2)NC(=O)[C@H](CC(=O)O)NC(=O)CNC1=O [technetium-99m labelled] | athymic nu/nu mouse, female, U-87 MG glioma xenograft, kidney | intravenous, 30 min | 23.3 ± 2.78
N=C(N)NCCC[C@@H]1NC(=O)[C@H](CCCCNC(=O)CC[C@H](NC(=O)CCOCCOCCOCCOCCNC(=O)CC[C@H](NC(=O)CN2CCN(CC(=O)O)CCN(CC(=O)O)CCN(CC(=O)O)CC2)C(=O)NCCOCCOCCOCCOCCC(=O)N[C@@H](CCC(=O)NCCCC[C@@H]2NC(=O)[C@@H](Cc3ccccc3)NC(=O)[C@H](CC(=O)O)NC(=O)CNC(=O)[C@H](CCCNC(=N)N)NC2=O)C(=O)NCCCC[C@@H]2NC(=O)[C@@H](Cc3ccccc3)NC(=O)[C@H](CC(=O)O)NC(=O)CNC(=O)[C@H](CCCNC(=N)N)NC2=O)C(=O)NCCCC[C@@H]2NC(=O)[C@@H](Cc3ccccc3)NC(=O)[C@H](CC(=O)O)NC(=O)CNC(=O)[C@H](CCCNC(=N)N)NC2=O)NC(=O)[C@@H](Cc2ccccc2)NC(=O)[C@H](CC(=O)O)NC(=O)CNC1=O [indium-111 labelled] | female athymic nude mice, spleen | intravenous, 3 µCi, 1 h, U-87 MG glioma xenograft | 2.47 ± 0.66
CSCC[C@H](NC(=O)[C@H](CC(C)C)NC(=O)[C@H](Cc1c[nH]cn1)NC(=O)CNC(=O)[C@@H](NC(=O)[C@H](C)NC(=O)[C@H](Cc1c[nH]c2ccccc12)NC(=O)[C@H](CCC(N)=O)NC(=O)CCCCCNC(=O)CNC(=O)CNC(=O)CNC(=O)CSC(C)=O)C(C)C)C(N)=O [technetium-99m labelled] | Swiss mouse, lung | intravenous, 18.5 MBq, 90 min | 0.21 ± 0.03
N=C(N)NCCC[C@@H]1NC(=O)[C@H](CCCCNC(=O)CC[C@H](NC(=O)CCOCCOCCOCCOCCNC(=O)CN2CCN(CC(=O)O)CCN(CC(=O)O)CCN(CC(=O)O)CC2)C(=O)NCCCC[C@@H]2NC(=O)[C@@H](Cc3ccccc3)NC(=O)[C@H](CC(=O)O)NC(=O)CNC(=O)[C@H](CCCNC(=N)N)NC2=O)NC(=O)[C@@H](Cc2ccccc2)NC(=O)[C@H](CC(=O)O)NC(=O)CNC1=O [indium-111 labelled] | female athymic nude mice, lungs | intravenous, 3 µCi, 72 h, U-87 MG glioma xenograft | 0.33 ± 0.04
CCCC[C@H](NC(=O)CNC(=O)CNC(=O)c1ccc(NN)nc1)C(=O)N[C@H]1CC(=O)NCCCC[C@@H](C(N)=O)NC(=O)[C@H](Cc2c[nH]c3ccccc23)NC(=O)[C@H](CCCNC(=N)N)NC(=O)[C@@H](Cc2ccccc2)NC(=O)[C@H](Cc2c[nH]cn2)NC1=O [technetium-99m labelled] | C57 mouse, B16/F1 melanoma-bearing, lung | intravenous, 4 h | 0.24 ± 0.04
N=C(N)NCCC[C@@H]1NC(=O)[C@H](CCCCNC(=O)CCOCCOCCOCCOCCNC(=O)CC[C@H](NC(=O)CCOCCOCCOCCOCCNC(=O)CC[C@H](NC(=O)CN2CCN(CC(=O)O)CCN(CC(=O)O)CCN(CC(=O)O)CC2)C(=O)NCCOCCOCCOCCOCCC(=O)N[C@@H](CCC(=O)NCCOCCOCCOCCOCCC(=O)NCCCC[C@@H]2NC(=O)[C@@H](Cc3ccccc3)NC(=O)[C@H](CC(=O)O)NC(=O)CNC(=O)[C@H](CCCNC(=N)N)NC2=O)C(=O)NCCOCCOCCOCCOCCC(=O)NCCCC[C@@H]2NC(=O)[C@@H](Cc3ccccc3)NC(=O)[C@H](CC(=O)O)NC(=O)CNC(=O)[C@H](CCCNC(=N)N)NC2=O)C(=O)NCCOCCOCCOCCOCCC(=O)NCCCC[C@@H]2NC(=O)[C@@H](Cc3ccccc3)NC(=O)[C@H](CC(=O)O)NC(=O)CNC(=O)[C@H](CCCNC(=N)N)NC2=O)NC(=O)[C@@H](Cc2ccccc2)NC(=O)[C@H](CC(=O)O)NC(=O)CNC1=O [indium-111 labelled] | female athymic nude mice, bone | intravenous, 3 µCi, 1 h, U-87 MG glioma xenograft | 1.2 ± 0.19
N=C(N)NCCC[C@@H]1NC(=O)[C@H](CC(=O)NC23CNCCNCC(N)(CNCCNC2)CNCCNC3)NC(=O)[C@@H](Cc2ccccc2)NC(=O)[C@H](CC(=O)O)NC(=O)CNC1=O [copper-64 labelled] | Nu/Nu mouse, male, tumour-bearing, liver | intravenous, 10 µCi, 1 h | 2.33 ± 0.76

Repeated from above:
SMILES | test system | setting | tissue uptake [%ID/g]
CC(C)C[C@H](NC(=O)[C@H](Cc1ccc(O)cc1)NC(=O)[C@@H](CCCNC(=N)N)NC(=O)[C@@H](CO)NC(=O)[C@H](Cc1ccccc1)NC(=O)[C@H](CC1CCCCC1)NC(=O)[C@H](CC(=O)O)NC(=O)CCC(C(=O)O)N1CCCN2CCN(CCCN(CC(=O)O)CC2)CC1)C(=O)N[C@@H](Cc1c[nH]c2ccccc12)C(=O)N[C@@H](CO)C(=O)O (stereo partly shown) [copper-64 labelled] | female NMRI nude mice, bone | 1 h p.i. | 0.9 ± 0.1
